Experimental data from different studies.
Compare with care: the assays were run in different laboratories. “And” joins repeats or separate records; there may be more than shown. ± gives the spread as reported.
ampC: Beta-lactamase (ampC, Escherichia coli K-12, UniProt P00811)
Sequence of UniProt P00811 (whole entry, looked up): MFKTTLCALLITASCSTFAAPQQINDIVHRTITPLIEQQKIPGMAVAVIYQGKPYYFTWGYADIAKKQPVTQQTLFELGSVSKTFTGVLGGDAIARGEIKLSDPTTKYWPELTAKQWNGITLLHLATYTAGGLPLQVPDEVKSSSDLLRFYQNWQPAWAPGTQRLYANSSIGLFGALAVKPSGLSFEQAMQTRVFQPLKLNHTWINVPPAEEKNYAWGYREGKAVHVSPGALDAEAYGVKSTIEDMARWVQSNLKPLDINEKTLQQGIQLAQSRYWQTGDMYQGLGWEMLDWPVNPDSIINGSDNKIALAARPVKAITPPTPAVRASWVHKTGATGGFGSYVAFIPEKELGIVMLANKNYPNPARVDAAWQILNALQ
Oprk1: Kappa-type opioid receptor (Oprk1, Rattus norvegicus, UniProt P34975)
Sequence of UniProt P34975 (whole entry, looked up): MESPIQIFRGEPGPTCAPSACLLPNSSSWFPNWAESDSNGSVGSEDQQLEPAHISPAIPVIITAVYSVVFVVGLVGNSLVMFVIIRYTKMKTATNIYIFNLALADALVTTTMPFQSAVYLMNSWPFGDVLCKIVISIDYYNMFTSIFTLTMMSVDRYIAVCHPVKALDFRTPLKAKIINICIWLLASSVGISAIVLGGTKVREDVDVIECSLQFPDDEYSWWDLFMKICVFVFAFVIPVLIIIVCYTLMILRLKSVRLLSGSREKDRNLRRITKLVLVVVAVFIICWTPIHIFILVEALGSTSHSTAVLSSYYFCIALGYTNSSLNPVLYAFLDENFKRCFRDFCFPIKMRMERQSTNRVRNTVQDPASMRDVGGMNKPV
BACE1: Beta-secretase 1 (BACE1, Homo sapiens, UniProt P56817)
Sequence of UniProt P56817 (whole entry, looked up): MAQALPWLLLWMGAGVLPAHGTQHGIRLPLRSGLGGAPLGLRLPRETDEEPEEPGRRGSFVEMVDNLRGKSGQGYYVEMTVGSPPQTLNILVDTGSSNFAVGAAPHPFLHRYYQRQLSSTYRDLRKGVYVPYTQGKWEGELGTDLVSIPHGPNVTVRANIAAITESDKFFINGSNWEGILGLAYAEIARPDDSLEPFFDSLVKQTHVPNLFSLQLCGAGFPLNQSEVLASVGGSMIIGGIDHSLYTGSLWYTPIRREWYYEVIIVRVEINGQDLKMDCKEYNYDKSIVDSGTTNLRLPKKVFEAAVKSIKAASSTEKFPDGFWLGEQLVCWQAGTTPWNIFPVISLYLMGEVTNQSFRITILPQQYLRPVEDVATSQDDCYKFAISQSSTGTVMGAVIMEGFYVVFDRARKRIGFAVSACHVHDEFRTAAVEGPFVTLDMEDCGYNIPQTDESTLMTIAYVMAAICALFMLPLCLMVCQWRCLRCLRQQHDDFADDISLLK
Sequence of UniProt P03372 (whole entry, looked up): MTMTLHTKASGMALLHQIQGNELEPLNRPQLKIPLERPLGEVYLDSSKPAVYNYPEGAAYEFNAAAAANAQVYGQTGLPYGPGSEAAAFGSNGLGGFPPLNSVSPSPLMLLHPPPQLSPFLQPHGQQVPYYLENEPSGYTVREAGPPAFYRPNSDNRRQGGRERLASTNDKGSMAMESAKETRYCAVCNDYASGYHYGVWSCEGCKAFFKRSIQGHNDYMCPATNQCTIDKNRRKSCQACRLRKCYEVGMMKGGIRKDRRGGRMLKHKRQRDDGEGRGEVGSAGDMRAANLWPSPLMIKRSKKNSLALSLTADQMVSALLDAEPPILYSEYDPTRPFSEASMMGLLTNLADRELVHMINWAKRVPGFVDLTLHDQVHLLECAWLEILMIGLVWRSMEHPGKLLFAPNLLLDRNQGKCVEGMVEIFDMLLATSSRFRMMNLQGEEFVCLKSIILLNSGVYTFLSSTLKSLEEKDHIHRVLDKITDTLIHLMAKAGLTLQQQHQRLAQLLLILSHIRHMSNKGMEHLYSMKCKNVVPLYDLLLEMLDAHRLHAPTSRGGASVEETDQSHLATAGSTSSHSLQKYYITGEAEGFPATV
Sequence of UniProt P00691 (whole entry, looked up): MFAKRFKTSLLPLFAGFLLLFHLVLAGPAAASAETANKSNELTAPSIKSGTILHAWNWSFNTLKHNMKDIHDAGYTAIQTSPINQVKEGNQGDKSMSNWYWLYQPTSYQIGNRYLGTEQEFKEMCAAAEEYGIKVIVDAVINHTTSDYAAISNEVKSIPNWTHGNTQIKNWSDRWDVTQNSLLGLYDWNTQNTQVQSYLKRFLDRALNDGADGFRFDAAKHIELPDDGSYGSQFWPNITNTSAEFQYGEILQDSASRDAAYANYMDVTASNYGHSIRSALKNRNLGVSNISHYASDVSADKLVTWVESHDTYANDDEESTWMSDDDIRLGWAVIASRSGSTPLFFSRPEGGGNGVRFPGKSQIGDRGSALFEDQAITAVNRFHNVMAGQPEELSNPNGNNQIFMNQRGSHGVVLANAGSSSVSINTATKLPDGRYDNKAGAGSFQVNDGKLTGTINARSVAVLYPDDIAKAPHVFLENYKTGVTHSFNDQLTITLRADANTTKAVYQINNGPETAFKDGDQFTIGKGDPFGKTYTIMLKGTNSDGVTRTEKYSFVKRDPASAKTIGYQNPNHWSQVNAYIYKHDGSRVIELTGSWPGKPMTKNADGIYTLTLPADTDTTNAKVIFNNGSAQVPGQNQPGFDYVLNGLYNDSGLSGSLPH
Sequence of UniProt P54646 (whole entry, looked up): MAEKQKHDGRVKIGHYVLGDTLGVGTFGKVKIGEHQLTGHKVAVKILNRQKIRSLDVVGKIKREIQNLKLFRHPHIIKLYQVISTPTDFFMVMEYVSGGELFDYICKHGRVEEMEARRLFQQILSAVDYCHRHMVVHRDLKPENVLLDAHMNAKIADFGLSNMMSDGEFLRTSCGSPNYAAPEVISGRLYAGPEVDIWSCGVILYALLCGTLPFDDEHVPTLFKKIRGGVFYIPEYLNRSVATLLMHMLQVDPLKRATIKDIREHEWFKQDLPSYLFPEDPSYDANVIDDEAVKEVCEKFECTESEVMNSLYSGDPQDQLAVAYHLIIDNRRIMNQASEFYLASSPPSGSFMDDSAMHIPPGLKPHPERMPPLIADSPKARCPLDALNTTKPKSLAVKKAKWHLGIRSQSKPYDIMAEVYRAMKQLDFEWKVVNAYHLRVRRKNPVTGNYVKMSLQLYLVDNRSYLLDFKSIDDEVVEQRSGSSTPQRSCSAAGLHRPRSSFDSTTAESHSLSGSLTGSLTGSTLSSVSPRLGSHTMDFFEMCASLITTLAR
Sequence of UniProt Q12908 (whole entry, looked up): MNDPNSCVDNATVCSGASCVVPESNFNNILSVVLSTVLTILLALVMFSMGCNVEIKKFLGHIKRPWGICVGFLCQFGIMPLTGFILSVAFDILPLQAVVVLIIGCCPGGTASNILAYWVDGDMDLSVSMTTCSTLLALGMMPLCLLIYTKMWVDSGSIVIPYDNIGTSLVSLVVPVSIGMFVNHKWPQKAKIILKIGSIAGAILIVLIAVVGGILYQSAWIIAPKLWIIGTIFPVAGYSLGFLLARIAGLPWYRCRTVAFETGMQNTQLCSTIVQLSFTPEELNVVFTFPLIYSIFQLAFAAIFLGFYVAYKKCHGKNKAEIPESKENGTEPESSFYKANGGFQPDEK
Sequence of UniProt O42275 (whole entry, looked up): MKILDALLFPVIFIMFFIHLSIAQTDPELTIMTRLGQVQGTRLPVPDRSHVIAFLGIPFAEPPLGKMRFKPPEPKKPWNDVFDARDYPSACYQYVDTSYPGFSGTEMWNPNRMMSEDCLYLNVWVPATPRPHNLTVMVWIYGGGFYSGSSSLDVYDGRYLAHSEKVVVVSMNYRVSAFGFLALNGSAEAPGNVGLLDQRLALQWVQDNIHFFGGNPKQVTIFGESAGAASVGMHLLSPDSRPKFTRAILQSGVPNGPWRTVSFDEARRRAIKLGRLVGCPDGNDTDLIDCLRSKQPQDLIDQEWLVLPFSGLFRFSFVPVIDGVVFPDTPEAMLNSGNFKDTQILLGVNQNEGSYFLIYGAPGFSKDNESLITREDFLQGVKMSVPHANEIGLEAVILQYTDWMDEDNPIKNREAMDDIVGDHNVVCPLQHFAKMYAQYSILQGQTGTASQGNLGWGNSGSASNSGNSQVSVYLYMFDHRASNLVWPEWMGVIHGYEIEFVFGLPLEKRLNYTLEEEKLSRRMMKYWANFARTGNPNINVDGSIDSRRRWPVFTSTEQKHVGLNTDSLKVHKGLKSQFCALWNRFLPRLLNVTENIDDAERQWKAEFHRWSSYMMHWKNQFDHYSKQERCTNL
Sequence of UniProt P20618 (whole entry, looked up): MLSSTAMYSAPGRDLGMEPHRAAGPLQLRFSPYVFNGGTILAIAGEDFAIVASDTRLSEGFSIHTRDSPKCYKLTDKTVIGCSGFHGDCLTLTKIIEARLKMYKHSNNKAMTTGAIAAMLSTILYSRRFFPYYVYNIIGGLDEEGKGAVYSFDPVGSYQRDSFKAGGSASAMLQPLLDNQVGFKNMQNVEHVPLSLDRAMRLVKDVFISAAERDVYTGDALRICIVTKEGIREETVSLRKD

O=C(N=P12CN3CN(CN(C3)C1)C2)c1ccccn1.[Cl][Pt][Cl]
affinity ratio (Albumin (ALB, Homo sapiens, UniProt P02768); binding, isothermal titration calorimetry; baseline: K1 over K2): ~40

COC(=O)C1C(OC(c2ccc(Cl)cc2)c2ccc(Cl)cc2)CC2CCC1N2C (single isomer, unassigned)
Ki (DRD1 (Homo sapiens, UniProt P21728); binding, radioligand displacement; inactive if below 75% at 10000 nM, with: [3H]SCH 23390): inactive

O=C(CN1CCN(c2cc3c(cc2F)c(=O)c(C(=O)O)cn3C2CC2)CC1)Nc1ccc(Cl)cc1
polymerization rate (Tubulin beta chain (Sus scrofa, UniProt P02554); fluorescence; 3 µM): no effect

CC(C)P(=S)(NP(=[Se])(C(C)C)C(C)C)C(C)C
number of binding sites (Alpha-amylase (Bacillus subtilis, UniProt P00691); fluorescence quenching; concentration not given, 310 K): 0.73 ± 0.05

CCS(=O)(=O)Nc1ccccc1C(=O)O
ligand efficiency (ampC): 0.42

CN1C(=O)C2(Cc3ccc(CC45SSC(CO)(C(=O)N4C)N(C)C5=O)cc3)SSC1(CO)C(=O)N2C (racemic)
association rate constant (Histone acetyltransferase p300, CH1 domain (EP300, Homo sapiens, UniProt Q09472); SPR; p300 CH1 domain GST fusion, with: DTT 100 µM): 5100 M⁻¹ s⁻¹

COC[C@H]1CC[C@@H]2/C1=C\[C@@]1(C)CCC(C(C)C)=C1[C@@H](O[C@H]1O[C@H](CO)[C@@H](O)[C@H](O)[C@H]1O)[C@H](O)[C@@H]2C
threshold concentration (14-3-3 protein gamma, with p65 peptide (YWHAG, Homo sapiens, UniProt P61981); ternary complex formation, 2D fluorescence anisotropy titration): 1 µM

N=C(N)NCCC[C@@H]1NC(=O)[C@H](CCCNC(=N)N)NC(=O)[C@H](NC(=O)[C@H](Cc2ccccc2)NC(=O)CNC(=O)CNC(=O)[C@H](Cc2ccc(O)cc2)NC(=O)c2ccccc2)CC(=O)NC[C@@H](C(=O)N[C@@H](CCCNC(=N)N)C(=O)N2CCC[C@H]2C(=O)N[C@@H](CCCCN)C(N)=O)NC1=O
affinity fold decrease (Oprk1; binding; baseline: zyklophin): 3.6 fold

C=C(C)C(=O)Oc1ccc(C(C)(C)c2ccc(OC(=O)C(=C)C)cc2)cc1
concentration enhancing estrogenic effect (Estrogen receptor (ESR1, Homo sapiens, UniProt P03372); reporter gene; with: estradiol at EC40): 5 µM and 10 µM

CC(=O)Oc1ccc(C(=O)O)c(OC(C)=O)c1
ligand efficiency (ampC): 0.24

CCCCCCCCCCCCCCCc1ccc(C(F)P(=O)(O)O)cc1 (racemic)
remaining activity (Autotaxin (ENPP2, Homo sapiens, UniProt Q13822); inhibitor; 10 µM, 2 h, with: FS-3 1 µM; baseline: control): 42.3%

CC(=O)NC(Cc1ccc(Br)c(Cl)c1)C(=O)N[C@@H](C)C(=O)N1CCC[C@H]1C(=O)N1CCC[C@H]1C(=O)N[C@@H](CCC(=O)O)C(=O)N[C@@H](Cc1c[nH]cn1)C(=O)N[C@@H](CO)C(=O)N[C@H](C(=O)N[C@@H](C)C(N)=O)[C@@H](C)OP(=O)(O)O (stereo partly shown)
inhibition (PRKD2 (Homo sapiens, UniProt Q9BZL6); enzyme activity, inhibitor; 10 µM): 0.95%

CS(C)(=O)=Nc1ccc(-c2ccc(-c3nc4cc(O[C@@H]5CO[C@H]6[C@@H]5OC[C@H]6O)[nH]c4cc3F)cc2)cc1
EC150 (PRKAB2/PRKAA2, with gamma2 subunit (Homo sapiens, UniProt O43741+P54646); enzyme activity, activator; 60 min, 50% above basal activity, with: ATP 50 µM): 0.196 nM

Nc1nc(N)c2ncn([C@@H]3O[C@@H]4COP(=O)(O)O[C@H]5[C@@H](O)[C@H](n6cnc7c(N)nc(N)nc76)O[C@@H]5COP(=O)(O)O[C@H]4[C@H]3O)c2n1
binding affinity fold loss (ydaO riboswitch wild type (Bacillus subtilis); competition gel-shift; concentration not given; baseline: c-di-AMP, higher = weaker binding): > 2.7e+06

OB(O)c1cnn(-c2cc(Cl)ncn2)c1
ligand efficiency (ampC): 0.71

CCCC[C@H](NC=O)C(=O)N[C@@H](CCCC)C(=O)N[C@@H](Cc1c[nH]c2ccccc12)C(=O)N[C@@H](CCC(=O)O)C(=O)N[C@@H](CC(=O)O)C(=O)N[C@@H](Cc1c[nH]c2ccccc12)C(=O)N[C@H](C(=O)NCC(=O)N[C@@H](Cc1c[nH]c2ccccc12)C(=O)N[C@H](C(=O)O)[C@@H](C)CC)C(C)C
Ki/EC50 ratio (FPR1 (Homo sapiens, UniProt P21462, R190W); receptor downregulation; CHO cells): 3 fold

O=C(/C=C/c1ccc(O)cc1)c1ccc(N2CCNCC2)cc1
remaining activity (BACE1; enzyme activity, inhibitor, fluorescence; 10 µM): 51.2%

CC(=O)N(C)[C@@H](Cc1ccccc1)C(=O)N[C@@H](Cc1ccccc1)C(=O)N[C@@H](Cc1ccc2ccccc2c1)C(=O)N[C@@H](CCCNC(=N)N)C(=O)N[C@@H](CC(C)C)C(=O)N[C@@H](CCCNC(=N)N)C(=O)N[C@@H](CCCNC(=N)N)C(=O)N[C@H](C)C(=O)N[C@@H](CCCNC(=N)N)C(=O)N1CCC[C@H]1C(=O)N[C@@H](CCCCN)C(N)=O
adenylyl cyclase activity (Oprk1; agonist; CHO cells; 10 µM; baseline: dynorphin A(1-13) amide): 101 ± 11%

CC(=O)N[C@H]1[C@@H](OP(=O)(O)OP(=O)(O)OC/C=C(/C)CC/C=C(/C)CC/C=C(/C)CC/C=C(/C)CC/C=C(/C)CC/C=C(/C)CC/C=C(/C)CC/C=C(/C)CC/C=C(\C)CC/C=C(\C)CCC=C(C)C)O[C@H](CO)[C@@H](O)[C@@H]1O[C@H](C)C(=O)N[C@@H](C)C(=O)N[C@H](CCC(=O)N[C@@H](CCCCNC(=O)OCCCCCCNC(=S)Nc1ccc(NS(=O)(=O)c2cccc3c(N(C)C)cccc23)cc1)C(=O)N[C@H](C)C(=O)N[C@H](C)C(=O)O)C(=O)O
Km (UDP-N-acetylglucosamine--N-acetylmuramyl-(pentapeptide) pyrophosphoryl-undecaprenol N-acetylglucosamine transferase (murG, Mycolicibacterium smegmatis, UniProt A0R016); substrate; with: UDP-GlcNAc 62.5 µM): 25 ± 3 µM

CCCCCC1CC(=O)N[C@@H](CO)C(=O)N[C@@H](Cc2ccccc2)C(=O)N[C@@H](Cc2ccc(O)cc2)C(=O)N[C@H](CCCNC(N)=O)C(=O)N[C@@H](CC(=O)O)C(=O)O1 (stereo partly shown)
activity (Proteasome component C5/PSMB5 (Homo sapiens, UniProt P20618+P28074); 50 µM): inactive

CC[C@H](C)[C@H](NC(=O)[C@H](CCCNC(=N)N)NC(=O)[C@H](CO)NC(=O)[C@@H](NC(=O)[C@H](CC(=O)O)NC(=O)[C@H](CC(=O)O)NC(=O)CCCCCNC(=O)c1ccc2c(c1)C(=O)OC21c2ccc(O)cc2Oc2cc(O)ccc21)[C@@H](C)O)C(=O)N[C@@H](CCC(=O)O)C(=O)N[C@@H](CCC(=O)O)C(=O)N[C@H](C(=O)N[C@@H](CC(=O)O)C(=O)O)C(C)C
affinity increase (STUB1 (Homo sapiens, UniProt Q9UNE7); fluorescence polarization; pH 7.4; baseline: wild-type Hsp90alpha tracer): ≥ 2 fold

CC[C@H](C)[C@H](NC(=O)[C@H](CCC(N)=O)NC(=O)[C@H](CC(C)C)NC(=O)[C@@H](NC(=O)CNC(=O)[C@H](Cc1ccc(O)cc1)NC(=O)[C@H](CC(=O)O)NC(=O)[C@@H](NC(=O)[C@H](CO)NC(=O)CNC(=O)[C@H](CC(=O)O)NC(=O)[C@@H](NC(=O)[C@H](CC(N)=O)NC(=O)[C@H](CCCNC(=N)N)NC(=O)[C@H](CC(N)=O)NC(=O)[C@@H](NC(=O)[C@H](C)NC(=O)[C@H](CCC(N)=O)NC(=O)[C@@H](NC(=O)[C@H](CC(N)=O)NC(=O)[C@H](Cc1ccccc1)NC(=O)[C@H](CC(N)=O)NC(=O)[C@H](CO)NC(=O)[C@H](CCC(=O)O)NC(=O)[C@H](Cc1ccccc1)NC(=O)[C@H](CCCCN)NC(=O)[C@H](C)NC(=O)[C@H](C)NC(=O)[C@H](CO)NC(=O)[C@@H](NC(=O)[C@H](Cc1c[nH]c2ccccc12)NC(=O)[C@H](CC(N)=O)NC(=O)CNC(=O)[C@H](CC(C)C)NC(=O)[C@H](CO)NC(=O)[C@H](Cc1ccc(O)cc1)NC(=O)CNC(=O)[C@H](CCCNC(=N)N)NC(=O)[C@H](Cc1ccc(O)cc1)NC(=O)[C@H](CC(N)=O)NC(=O)[C@@H](N)CC(=O)O)C(C)C)[C@@H](C)O)[C@@H](C)O)[C@@H](C)O)[C@@H](C)O)[C@@H](C)CC)C(=O)O
assembled state duration (Periplasmic serine endoprotease DegP (degP, Escherichia coli, UniProt P0C0V0, C83S/C95S/N322C); FRET; 5, 10 or 20 µM): 5 to 15 min

C[C@H](CCC(=O)NCC(=O)O)[C@H]1CC[C@H]2[C@@H]3C(=O)C[C@H]4C[C@H](O)CC[C@]4(C)[C@H]3CC[C@]12C
Kt (SLC10A2 (Homo sapiens, UniProt Q12908); substrate; SLC10A2-MDCK cells; 10 min, with: with vs without sodium): 34 ± 7.64 µM

O=C(/C=C/c1ccc(F)cc1)c1cc2ccccc2oc1=O
remaining activity (BACE1; enzyme activity, inhibitor, fluorescence; 10 µM): 81.2%

O=C([O-])CN1CCN(CC(=O)NCCN(Cc2ccccn2)Cc2ccccn2)CCN(CC(=O)[O-])CCN(CC(=O)NCCN(Cc2ccccn2)Cc2ccccn2)CC1.[Gd+3]
relaxivity r1 (Albumin, Zn(II)-bound (ALB, Homo sapiens, UniProt P02768); relaxometry 0.47 T; 600 µM, 310 K, with: Zn(II) two equivalents): 17.4 ± 0.5 mM⁻¹ s⁻¹

CCN(Cc1ccccc1)C(=O)CCc1nc(CN2CCN(C(=O)Cc3ccc(OC)c(OC)c3)CC2)no1
V1/2 of activation (SCN9A (Homo sapiens, UniProt Q15858); whole-cell patch clamp; HEK stable; 10 µM): -38.6 ± 2.11 mV

Cc1cccc(Nc2c3c(nc4ccccc24)CCC(C)C3)n1 (stereo not shown)
inhibition (ache (Electrophorus electricus, UniProt O42275); enzyme activity, inhibitor, Ellman; 50 µM): 33.6%

CC(=O)N[C@H]1[C@@H](OC[C@H](NC(=O)CNC(=O)[C@@H]2CCCN2C(=O)[C@H](C)NC(=O)[C@@H]2CCCN2C(=O)[C@@H](N)CCCNC(=N)N)C(=O)N[C@H](C(=O)N[C@@H](C)C(=O)N2CCC[C@H]2C(=O)N2CCC[C@H]2C(=O)N[C@@H](C)C(=O)N[C@@H](Cc2c[nH]cn2)C(=O)NCC(=O)O)[C@@H](C)O[C@H]2O[C@H](CO)[C@H](O)[C@H](O)[C@H]2NC(C)=O)O[C@H](CO)[C@H](O)[C@@H]1O
kd decrease (anti-MUC1 Fab 14 A wild type, murine; SPR; baseline: Glyco-T): 4 fold

COc1ccc2cc1Oc1ccc(cc1)C[C@H]1c3cc(c(OC)cc3CC[N@+]1(C)Cc1ccc3ccc4cccc5ccc1c3c45)Oc1c(OC)c(OC)cc3c1[C@H](C2)[N@@+](C)(Cc1ccc2ccc4cccc5ccc1c2c45)CC3
Stern-Volmer constant (poly(dG)·poly(dC) 18-bp dsDNA; DNA binding, ethidium bromide displacement; phosphate buffer, 10% DMSO; pH 7.2, 25 °C, dsDNA 10 µM, 10 mM NaCl, with: ethidium bromide 5 µM): 8260 M⁻¹

CNC(=O)c1cccc(-c2ccc(O[C@H]3O[C@H](CO)[C@@H](O)[C@H](O)[C@@H]3O)cc2)c1
melting temperature (Type 1 fimbrin D-mannose specific adhesin, lectin domain (fimH, Escherichia coli K-12, UniProt P08191); binding, differential scanning fluorimetry; higher = stronger binding): 73.1 °C

Cc1cc(C)nc(Sc2nc3sccn3c2[N+](=O)[O-])n1
Hill slope (Genome polyprotein, 3C protease (rhinovirus B14, UniProt P03303); protease activity, SAMDI-MS): 1.31

A few entries again:
CN1C(=O)C2(Cc3ccc(CC45SSC(CO)(C(=O)N4C)N(C)C5=O)cc3)SSC1(CO)C(=O)N2C (racemic)
association rate constant (Histone acetyltransferase p300, CH1 domain (EP300, Homo sapiens, UniProt Q09472); SPR; p300 CH1 domain GST fusion, with: DTT 100 µM): 5100 M⁻¹ s⁻¹

COC[C@H]1CC[C@@H]2/C1=C\[C@@]1(C)CCC(C(C)C)=C1[C@@H](O[C@H]1O[C@H](CO)[C@@H](O)[C@H](O)[C@H]1O)[C@H](O)[C@@H]2C
threshold concentration (14-3-3 protein gamma, with p65 peptide (YWHAG, Homo sapiens, UniProt P61981); ternary complex formation, 2D fluorescence anisotropy titration): 1 µM

N=C(N)NCCC[C@@H]1NC(=O)[C@H](CCCNC(=N)N)NC(=O)[C@H](NC(=O)[C@H](Cc2ccccc2)NC(=O)CNC(=O)CNC(=O)[C@H](Cc2ccc(O)cc2)NC(=O)c2ccccc2)CC(=O)NC[C@@H](C(=O)N[C@@H](CCCNC(=N)N)C(=O)N2CCC[C@H]2C(=O)N[C@@H](CCCCN)C(N)=O)NC1=O
affinity fold decrease (Oprk1; binding; baseline: zyklophin): 3.6 fold

C=C(C)C(=O)Oc1ccc(C(C)(C)c2ccc(OC(=O)C(=C)C)cc2)cc1
concentration enhancing estrogenic effect (Estrogen receptor (ESR1, Homo sapiens, UniProt P03372); reporter gene; with: estradiol at EC40): 5 µM and 10 µM

CC(=O)Oc1ccc(C(=O)O)c(OC(C)=O)c1
ligand efficiency (ampC): 0.24
